# Published values gathered from unrelated publications.
# Compare with care: the assays were run in different laboratories.
Compound,test system,conditions,how to read,endpoint,result
C=CC(=O)Nc1cc(Nc2ncc(C(=O)OC(C)C)c(-c3cn(C)c4ccccc34)n2)c(OC)cc1N(C)CCN(C)C,"healthy human, urine","oral, 80 mg single dose, 0-48 h, arithmetic mean",,amount excreted in urine,0.59 mg
CC(C)(Sc1ccncc1-c1ccc(C#N)c2ccccc12)C(=O)O,"human, urine","oral, 5 mg, with: febuxostat 40 mg",,amount excreted in urine (0-24 h),83.3 µg
Oc1ccc([C@@H](O)c2cc(-c3ncnc4cc(N5CCOCC5)ccc34)c(F)cc2Cl)nn1,"healthy human volunteers, urine","0-24 h, overall, geometric mean",reference: dose,amount excreted in urine,4.95%
Cl.O=C(NC1CCOCC1)c1csc([C@@H]2C[C@H]2NCC2CC2)c1,"human, fed, urine","oral, 30 mg single dose",,amount excreted in urine,5.89 mg
CC(=O)N(C)[C@H]1CCN(C(=O)c2cnc3c(c2)C[C@](C)(c2ccc(F)cc2)N3)C1,"healthy male human, urine","oral, 15 mg once daily, 0-48 h steady state, geometric mean",,amount excreted in urine,19300 nmol
CN(C(=O)C(C)(C)c1cc(C(F)(F)F)cc(C(F)(F)F)c1)c1cnc(N2C[C@H]3COCCN3C[C@H]2CO)cc1-c1ccc(F)cc1[14CH3],healthy male human,"oral, 120 mg, up to 480 h cumulative",reference: dose,amount excreted in faeces,50.5%
CN[C@@H]1COc2c(S(=O)(=O)NC(=O)Nc3c4c(cc5c3CCC5)CCC4)cnn2C1,"human, urine","oral, 900 mg, 0-48 h",,amount excreted in urine (0-48 h),163 mg
NCCONC(=O)[C@@H]1CC[C@@H]2CN1C(=O)N2OS(=O)(=O)O,"human male, urine","intravenous infusion, 1 g single dose",,amount excreted in urine (0-24 h),849000 µg
Cn1cc(-c2cn3nccc3c(-c3cnn([C@]4(CC#N)C[C@@H](C#N)C4)c3)n2)cn1,"human, urine","oral, 1200 mg once daily, day 10, dosing interval geometric mean",,amount excreted unchanged in urine,14.7 mg
CC(C)n1c(C2CCNCC2)nc2c([N+](=O)[O-])c(Br)c(Br)cc21,"human, urine","oral, 125 mg, 0-24 h, median, single dose",,amount excreted in urine,1.11 mg

# Some of these lines once more:
Compound,test system,conditions,how to read,endpoint,result
CN[C@@H]1COc2c(S(=O)(=O)NC(=O)Nc3c4c(cc5c3CCC5)CCC4)cnn2C1,"human, urine","oral, 900 mg, 0-48 h",,amount excreted in urine (0-48 h),163 mg
CC(=O)N(C)[C@H]1CCN(C(=O)c2cnc3c(c2)C[C@](C)(c2ccc(F)cc2)N3)C1,"healthy male human, urine","oral, 15 mg once daily, 0-48 h steady state, geometric mean",,amount excreted in urine,19300 nmol
